# Measured values of several laboratories.
# ± gives the spread as reported.
Compound,test,system,setting,scale,endpoint,value
CCCCN1CCC(COC(=O)c2ccc(N)c(O[11CH3])c2)CC1,,rhesus monkey whole blood or plasma,5 min,,degradation,3 to 5%
C[C@]12CC[C@@H]3c4ccc(O)cc4CC[C@H]3[C@@H]1CCC2=O,ultrafiltration,cow milk whey,200 nM nominal in whole milk,,final permeate concentration,3.3 nM
CCc1ccc(CC/C=C/c2ccc3c(c2)C(=O)CC3)cc1,,"Sprague-Dawley rat, male","oral, 120 mg/kg/day, 14 days",,ALT serum activity,86.7 U/L
COc1cc(C2C3=C(COC3=O)N(CCO)c3cc4c(cc32)CCC4)cc(OC)c1OC (stereo not drawn),,female C57BL/6 mice,"intraperitoneal, 100 mg/kg, 72 h, single dose, mean",,body weight,23 g
CO[C@H]1C[C@@H]2CC[C@@H](C)[C@@](O)(O2)C(=O)C(=O)N2CCCC[C@H]2C(=O)O[C@H]([C@H](C)C[C@@H]2CC[C@@H](OC(=O)NCCOCCOCCOCCOCCOCCOCCOCCOCCC(=O)N3CCc4cc(Cn5nc(-c6ccc7oc(N)nc7c6)c6c(N)ncnc65)ccc4C3)[C@H](OC)C2)C[C@@H](O)[C@H](C)/C=C(\C)[C@@H](O)[C@@H](OC)C(=O)[C@H](C)C[C@H](C)/C=C/C=C/C=C/1C,dose-escalation trial,patients with advanced solid tumours,"intravenous, all doses weekly, grade ≥3",,decreased appetite TEAE incidence,1.8%
COc1ncccc1-c1cnn2ccc(N3CCN(C(=O)OC(C)C)CC3)nc12,,"rat, STZ model, brain","oral, 10 mg/kg, 240 min",,drug concentration,5.04 µM
CC(=O)c1c(C)c2cnc(Nc3ccc(C4CCN(CCS(C)(=O)=O)CC4)cn3)nc2n(C2CCCC2)c1=O,,"human, plasma","oral, 50 mg, day 1 single dose",,t1/2,13.6 h
COc1ccc2nc3cc(Cl)ccc3c(Nc3cc(CN4CCCC4)c(O)c(CN4CCCC4)c3)c2n1,,"mouse, blood","intraperitoneal, 57 mg/kg",,haemoglobin,136 g/L
COC[C@@H](CC(C)C)NC(=O)c1ccc(C)c(C)c1,,"Hsd:ICR (CD-1) mouse, male, bone marrow","oral, 2000 mg/kg, 48 h",,micronucleated PCE per 1000 PCE,0.4
Cn1cncc1-c1c(F)cncc1NC(=O)c1c(N)nn2cc(F)cnc12,,human patients,"oral, up to 40 mg once daily, 21 days",,anaemia DLT,0%
[O-][S+]1CCc2nc(N3CCC(c4ncc(Cl)cn4)CC3)nc(NC3(CO)CCC3)c21 (stereo not drawn),"phase I trial, measured: frequent bowel movements",idiopathic pulmonary fibrosis patients,18 mg twice daily,,subjects with adverse events,10%
COc1ccnc(C(=O)N[C@H]2COC(=O)[C@H](Cc3ccccc3)[C@@H](OC(=O)C(C)C)[C@H](C)OC2=O)c1OCOC(=O)C(C)C,aerobic dark soil incubation,silt loam soil,"20 °C, persistence endpoint",,DT50,1.9 days
C[C@H]1COCCN1c1nc(NCc2cccnc2C(F)(F)F)c2cccnc2n1,,"anaesthetized rat, plasma","intravenous, 3 mg/kg, 5 min",,plasma concentration,11000 ng/mL
C=CC(=O)Nc1cc(Nc2nccc(Nc3cc(Cl)c(F)cc3C(C)(C)O)n2)c(OC)cc1N1CC[C@@H](N(C)C)C1,,human patients,"oral, 200 mg, treatment-emergent adverse events",,patients with nausea,18.8%
CC(C)C[C@H](NC(=O)[C@H](CCCCN)NC(=O)OCC1c2ccccc2-c2ccccc21)C(=O)N[C@H](C(=O)N[C@@H](Cc1ccccc1)C(=O)N[C@@H](Cc1ccccc1)C(=O)N[C@@H](CCCCN)C(=O)NCC(=O)N[C@@H](Cc1ccccc1)C(=O)N[C@@H](C)C(=O)N[C@@H](Cc1c[nH]c2ccccc12)C(=O)N[C@@H](CC(N)=O)C(=O)N[C@H](C(=O)N[C@H]1CSSC[C@@H](C(=O)N[C@@H](Cc2c[nH]cn2)C(=O)N[C@@H](CCCNC(=N)N)C(=O)N[C@@H](CCCNC(=N)N)C(=O)N[C@@H](C)C(=O)N[C@@H](CC(N)=O)C(N)=O)NC(=O)[C@H](C(C)C)NC(=O)[C@H](CCCNC(=N)N)NC(=O)[C@H](C(C)C)NC(=O)CNC(=O)[C@H](CC(N)=O)NC(=O)[C@H](CCCNC(=N)N)NC(=O)[C@H](Cc2ccc(O)cc2)NC(=O)[C@H](C(C)C)NC1=O)C(C)C)C(C)C,,"ICR mice, serum","intraperitoneal, 5 mg/kg, day 5",reference: AST over ALT,AST/ALT ratio,0.52 ± 0.04
Clc1cc2c(cc1Cl)Oc1cc(Cl)c(Cl)cc1O2,,female Sprague-Dawley rat,"oral gavage, 10 µg/kg, day 28, every 28 d for 4 d",reference: vehicle,terminal body weight decrease,12.9%
CN1CCN(S(=O)(=O)c2cc([N+](=O)[O-])ccc2N(CCOS(C)(=O)=O)CCOS(C)(=O)=O)CC1,,"NSG mice female, plasma","intraperitoneal, 10 mg/kg, 0.5 h",,concentration,2.91 µM
CCN1[C@@H](C(=O)NC23CCC(C(=O)O)(CC2)CC3)[C@H](c2cccc(Cl)c2F)[C@]2(C(=O)Nc3cc(Cl)ccc32)C12CCCCC2,,patients with advanced solid tumours,"oral, 100 mg",,Thrombocytopenia incidence,36.4%
O=c1nc(NO)ccn1[C@@H]1O[C@H](CO)[C@@H](O)[C@H]1O,,rat maternal blood dialysate,"25 ng/mL, 6 h, room temperature, low concentration, added: molnupiravir 5 ng/mL",,bench-top stability,99.8 ± 2.44%
Nc1nc2cc(-c3ccc4ncc(C(=O)N5CCOCC5)n4c3)ccc2o1,,"human, advanced solid tumours","100–300 mg once daily, all-cause",,discontinuation due to adverse events,17%
Cc1nonc1Cn1nnc2c(N3CC[C@H](O)C3)nc(C(C)(C)C)nc21,,C57BL/6 mice,"oral, 2.8 mg/kg",,half-life,2.15 h
COc1cc2c(Oc3ccc4[nH]c(C)cc4c3F)ccnc2cc1OCC1(N)CC1,,paediatric recurrent refractory sarcoma,8 mg,,grade 1 or 2 Neutropenia,0%
CN(C(=O)n1cnc(-c2ccc[n+]([O-])c2)c1)C1CCCCC1,,"Wistar rat, pons","oral, 10 mg/kg/day, 72 h, repeated 5 days",,concentration,14.3 ± 0.5 ng/g
Cn1cc(-c2nc(N[C@@H]3CCCC[C@@H]3N)c(F)c3c2C(=O)NC3)cn1,measured: Hemoptysis,patients with relapsed or refractory AML,"oral, dose not given, all doses",,hemorrhagic adverse events,7%
C=CCNc1c(O)cc2c(O)c1C[C@@H](C)C[C@H](OC)[C@H](O)[C@@H](C)/C=C(\C)[C@H](OC(N)=O)[C@@H](OC)/C=C\C=C(/C)C(=O)N2,,"unresectable or metastatic STS, GIST, other","intravenous, 500 mg/m^2",,patients with headache TEAE,86%
C=CC(=O)N1CC[C@H](n2nc(C#Cc3cc(OC)cc(OC)c3)c3c(N)ncnc32)C1,,human patients,"oral, dose not given, QD regimen, adverse drug reaction, added: any phosphate binder",,"hyponatremia incidence, grade ≥3",5%
C[C@H]1C[C@@H](N2C(=N)N[C@](C)(c3cccc(NC(=O)c4cccc(C#N)c4)c3Cl)CC2=O)CCO1,,Han Wistar rat male,"oral, 1000 mg/kg, 7 days",,free AUC(0-inf),436 µg·h/mL
NCCCC[C@@H]1NC(=O)[C@@H](Cc2c[nH]c3ccccc23)NC(=O)[C@H](c2ccccc2)NC(=O)[C@@H]2C[C@@H](OC(=O)NCCN)CN2C(=O)[C@H](Cc2ccccc2)NC(=O)[C@H](Cc2ccc(OCc3ccccc3)cc2)NC1=O,,healthy human volunteers,1950 µg twice daily,,subjects with abdominal distension,7%
Cc1c(COC(=O)[C@@H]2[C@H](/C=C(\Cl)C(F)(F)F)C2(C)C)cccc1-c1ccccc1 (racemic),measured: CYP2C8,"human, age 1 year, recombinant human CYP2C8",0.1 µM,,enzyme contribution to clearance,7.96%
O=C(Nc1ccccc1)C1CCN(C(=O)Oc2cccnc2)CC1,psychotropic effects VAS,healthy women,20 mg,"reference: pre-dose baseline, direction not given",change in external perception score,0
CC(=O)N1CCC(Nc2cc(C(=O)NC[C@H](O)CN3CCc4ccccc4C3)ncn2)CC1,,"patients with relapsed/refractory MDS, CMML or AML","oral, dose not given",,deaths,83%
CC(C)[C@@H]1NC(=O)CNC(=O)[C@H](CC(N)=O)NC(=O)[C@H](CCCNC(=N)N)NC(=O)[C@H](Cc2ccc(O)cc2)NC(=O)[C@H](C(C)C)NC(=O)[C@@H](NC(=O)[C@@H](NC(=O)[C@H](CC(N)=O)NC(=O)[C@H](Cc2c[nH]c3ccccc23)NC(=O)[C@H](C)NC(=O)[C@H](Cc2ccccc2)NC(=O)CN)C(C)C)CSSC[C@@H](C(=O)N[C@@H](Cc2c[nH]cn2)C(=O)N[C@@H](CCCNC(=N)N)C(=O)N[C@@H](CCCNC(=N)N)C(=O)N[C@@H](C)C(=O)N[C@@H](CC(N)=O)C(N)=O)NC(=O)[C@H](C(C)C)NC(=O)[C@H](CCCNC(=N)N)NC1=O,"circular dichroism, measured: β-Turn",PBS,"80 µM, pH 7.4, added: LPS 1 µM",,secondary structure content,21.2%
C[C@]1(CO)Cc2ncn(-c3ccc(C#N)c(Cl)c3)c2C(=O)O1,,"healthy men, serum","dose not given, mean, maximum not exceeded",reference: baseline,change in serum potassium,≤ 11%
O=S(=O)(Nc1ccccc1)c1ccc(NC(=S)Nc2ccccc2)cc1,,"female mice, thymus","oral, 20 mg/kg daily 14 days",reference: body weight,relative organ weight,0.32%
CCS(=O)(=O)Nc1ccc(Oc2ccc(F)cc2F)c(-c2cn(C)c(=O)c3[nH]ccc23)c1,any AE leading to discontinuation,"human, relapsed/refractory AML","oral, dose not given",,treatment-emergent adverse events,32%
C[C@@H](NC(=O)N1C(=O)[C@H](Cc2ccnc(N)c2)[C@H]1C(=O)O)C1CCCCC1,,healthy Chinese adult volunteers,"continuous intravenous infusion, dose not given, 5.0 days, CTCAE 5.0, all doses",,elevated blood uric acid,2.5%
